Experimental data pooled from the literature.
Compare with care: the assays were run in different laboratories. ± gives the spread as reported.

`N=C(N)NCCC[C@@H](NC(=O)CCOCCOCCNC(=O)[C@H](CCCCNC(=O)CC[C@H](NC(=O)c1ccc(NCc2cnc3nc(N)[nH]c(=O)c3n2)cc1)C(=O)O)NC(=O)CO/N=C/[C@H](F)[C@@H](O)[C@H](O)[C@H](O)CO)C(=O)NCC(=O)N[C@H](CC(=O)O)C(N)=O` [fluorine-18 labelled] — result for “intact radiotracer in urine”: over 75% (radio-HPLC; athymic nude mice, urine; 2.5 h).
`O=C(O)CC[C@H](NC(=O)N[C@@H](CCCCNC(=O)[C@H](Cc1ccc2ccccc2c1)NC(=O)CCCCCNC(=O)CN1CCN(CC(=O)O)CCN(CC(=O)O)CCN(CC(=O)O)CC1)C(=O)O)C(=O)O` [gallium-68 labelled]: “tumour to non-tumour ratio” 2.77 ± 0.21 (PET/CT SUVmean; mice with 22Rv1 xenograft; intravenous, 3.7 MBq, 8 h).
For `CC(C)C[C@H](NC(=O)C[C@H](O)[C@H](CC(C)C)NC(=O)[C@H](Cc1c[nH]cn1)NC(=O)CNC(=O)[C@@H](NC(=O)[C@H](C)NC(=O)[C@H](Cc1c[nH]c2ccccc12)NC(=O)[C@H](CCC(N)=O)NC(=O)[C@@H](Cc1ccccc1)NC(=O)COCCOCCNC(=O)CCC(C(=O)O)N1CCN(CC(=O)O)CCN(CC(=O)O)CCN(CC(=O)O)CC1)C(C)C)C(N)=O` (stereo partly drawn) [lutetium-177 labelled], the tissue uptake was 0.013 ± 0.004 %ID/g (female BALB/c nu/nu mice, bone; intravenous, 100 pmol, 24 h, with: PA 300 µg).
`CC(C)=NNc1ccc(C(=O)N[C@H]2CSSC[C@@H](C(=O)O)NC(=O)[C@H](Cc3c[nH]cn3)NC(=O)[C@H](CO)NC(=O)[C@H](Cc3ccccc3)NC(=O)[C@@H]3CCCN3C(=O)[C@H](CO)NC(=O)[C@@H]3CCCN3C(=O)[C@H]([C@@H](C)O)NC2=O)cn1`: “HPLC retention time” 22.2 min (analytical HPLC; conjugate without acetone hydrazone protection).
With `COc1cccc2c1C(=O)c1c(O)c3c(c(O)c1C2=O)C[C@@](O)(C(=O)CO)C[C@@H]3O[C@H]1C[C@H](NC(=O)[C@@H]2CCCN2C(=O)CN)[C@H](O)[C@H](C)O1` the Cmax was 3.9 ± 0.53 µM (healthy mouse, plasma; intravenous, 849.5 mg/kg PhAc-ALGP-Dox).
With `CC(C)C[C@H](NC(=O)C[C@H](O)[C@H](CC(C)C)NC(=O)[C@H](Cc1c[nH]cn1)NC(=O)CNC(=O)[C@@H](NC(=O)[C@H](C)NC(=O)[C@H](Cc1c[nH]c2ccccc12)NC(=O)[C@H](CCC(N)=O)NC(=O)[C@@H](Cc1ccccc1)NC(=O)COCCOCCNC(=O)CCC(C(=O)O)N1CCN(CC(=O)O)CCN(CC(=O)O)CC1)C(C)C)C(N)=O` (stereo partly drawn) [lutetium-177 labelled] the tissue uptake was 4 ± 1 %ID/g (female BALB/c nu/nu mice, tumor; intravenous, 50 pmol, 24 h).
The tumour uptake of `COCCOCCOCCOc1ccc(C#Cc2cc(CN3CCN(Cc4cc(C#Cc5ccc(OCCOCCOCCOC)cc5)cc(C(=O)O)n4)CCN(Cc4cc(SC[C@H](N)C(=O)NC[C@H]5CC[C@H](C(=O)N[C@@H](Cc6ccc7ccccc7c6)C(=O)NCCCC[C@H](NC(=O)N[C@@H](CCC(=O)O)C(=O)O)C(=O)O)CC5)cc(C(=O)O)n4)CC3)nc(C(=O)O)c2)cc1` [yttrium-86 labelled] is reported as 4.8 ± 0.01 %ID/g (mouse with bilateral PC-3 tumours, PSMA-positive tumour; intravenous, 6 h).
`COc1cccc2c1C(=O)c1c(O)c3c(c(O)c1C2=O)C[C@@](O)(C(=O)CO)C[C@@H]3O[C@H]1C[C@H](NC(=O)[C@@H]2CCCN2C(=O)CNC(=O)[C@@H](N)CC(C)C)[C@H](O)[C@H](C)O1` gave a Cmax of 2.5 ± 0.18 µM (healthy mouse, plasma; intravenous, 849.5 mg/kg PhAc-ALGP-Dox).
With `CC(C)[C@H](NC(=O)[C@H](Cc1ccc(O)cc1)NC(=O)[C@H](Cc1ccc(O)cc1)NC(=O)[C@@H]1CCCN1C(=O)[C@H](CCC(=O)O)NC(=O)[C@H](CCC(=O)O)NC(=O)[C@H](Cc1c[nH]c2ccccc12)NC(=O)[C@@H]1CCCN1C(=O)[C@@H](NC(=O)[C@H](CCC(N)=O)NC(=O)c1ccc2c(c1)C(=O)OC21c2ccc(O)cc2Oc2cc(O)ccc21)C(C)C)C(=O)N[C@H](C(=O)N[C@@H](CCCCN)C(=O)N[C@@H](CCCCN)C(=O)N[C@@H](CO)C(=O)N[C@@H](CO)C(=O)NCC(=O)NCC(N)=O)C(C)C` the plasma concentration was 2600 ng/mL (measured: total compound; human, plasma; intravenous infusion, 200 mg, 1 h).

Repeated from above:
With `CC(C)C[C@H](NC(=O)C[C@H](O)[C@H](CC(C)C)NC(=O)[C@H](Cc1c[nH]cn1)NC(=O)CNC(=O)[C@@H](NC(=O)[C@H](C)NC(=O)[C@H](Cc1c[nH]c2ccccc12)NC(=O)[C@H](CCC(N)=O)NC(=O)[C@@H](Cc1ccccc1)NC(=O)COCCOCCNC(=O)CCC(C(=O)O)N1CCN(CC(=O)O)CCN(CC(=O)O)CC1)C(C)C)C(N)=O` (stereo partly drawn) [lutetium-177 labelled] the tissue uptake was 4 ± 1 %ID/g (female BALB/c nu/nu mice, tumor; intravenous, 50 pmol, 24 h).
